Published values from different studies.
Protocols differ between the studies behind these lines. Values joined by “and” are separate records of one study, mostly repeats; a detail may differ. ± gives the spread as reported.
UCHL1: Ubiquitin carboxyl-terminal hydrolase isozyme L1 (UCHL1, Homo sapiens, UniProt P09936)
Chain of UniProt P09936 (whole entry, looked up): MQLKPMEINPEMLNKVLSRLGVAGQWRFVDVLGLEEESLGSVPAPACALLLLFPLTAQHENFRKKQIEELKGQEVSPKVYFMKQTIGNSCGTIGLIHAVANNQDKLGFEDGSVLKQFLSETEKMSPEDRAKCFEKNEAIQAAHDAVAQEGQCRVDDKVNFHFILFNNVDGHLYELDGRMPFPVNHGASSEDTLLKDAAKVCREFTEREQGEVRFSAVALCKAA

O=C(O)c1cccnc1Nc1cccc(C(F)(F)F)c1
TEAD reporter activity (MCF7; firefly luciferase reporter; 25 µM, 6 h; baseline: vehicle): 104 ± 7.3%

C#C[C@@]1(O)[C@@H](CO)O[C@@H](n2cc(Cl)c3c(N)ncnc32)[C@@H]1O
TGI (MCF7; SRB; NCI-60 screen): 1.04 µM and 1.16 µM

O=C(CCl)N1N=C(c2cccs2)CC1c1ccccc1O (centres unmarked)
labelling (UCHL1; covalent, intact protein LC-MS; 12.5 µM): 41.8%

CCOC(=O)c1nn(-c2cccc(Cl)c2)/c(=N/N=C(\C)c2ccc(NC(=O)c3ccccc3)cc2)s1
cytotoxicity (MCF7; MTT; 1.25 µM): 97.4%

Cn1cncc1C1=CN(c2ncnc3[nH]cnc23)CCS1
TGI (MCF7): 115 µM

C[C@@H]1CC[C@@H]([C@](C)(O)CNCc2cccc(F)c2)[C@H](OCc2ccccc2)C1
IC50 (MCF7; cell growth, inhibitor, MTT; 72 h): 3.54 µM

CCCN1CCN(c2ccc3[nH]c(-c4ccc5[nH]c(-c6ccc(C(F)(F)F)cc6)nc5c4)nc3c2)CC1
growth percent (MCF7; SRB; 10 µM, 48 h): -77%

COc1cccc2c1C(=O)c1c(O)c3c(c(O)c1C2=O)C[C@@](O)(C(=O)CO)C[C@@H]3O[C@H]1C[C@H](N)[C@H](O)[C@H](C)O1
selectivity index (MCF7; baseline: BJ1 IC50 over MCF7 IC50): 0.6

CC/C(=C(\c1ccc(O)cc1)c1ccc(OCCNC)cc1)c1ccccc1
cell growth (MCF7; 0.1 µM, 5 days; baseline: vehicle): 67%

CC(=O)c1nn(-c2ccc(Cl)cc2)/c(=N/N=C(\C)c2ccc(NC(=O)c3ccc(Cl)cc3)cc2)s1
viability (MCF7; 2.5 µM): 87.5%

CN(C)C(=S)[N-]N=C(c1ccccn1)c1ccccn1.[O]=[V+]=[O]
selectivity ratio (MCF7; MTT; 48 h; baseline: IC50 MCF-10A over IC50 MCF7): > 20

CCn1cc(-c2cc(Cn3ccoc3=N)cc3c2CCN([C@@H](C)c2cc(OC)ccn2)C3=O)c(C(F)(F)F)n1
EC50 (MCF7; cell growth, inhibitor; 120 h): > 30 µM

CC(=O)c1nn(-c2ccc(Cl)cc2)/c(=N/N=C(\C)c2ccc(NC(=O)c3ccccc3)cc2)s1
toxicity (MCF7; 10 µM): 95.2%

Cc1ccc(C(=O)c2c(C=O)oc3cc(C#N)c(C#N)cc23)cc1
labelling (UCHL1; covalent, intact protein LC-MS; 12.5 µM): 32.9%

CC(=O)Nc1ccc(/C(C)=N/N=c2\sc(C(C)=O)nn2-c2ccc(C)cc2)cc1
cytotoxicity (MCF7; MTT; 0.312 µM): 0.259%

COc1cccc2c1C(=O)c1c(O)c3c(c(O)c1C2=O)C[C@@](O)(C(=O)CO)C[C@@H]3O[C@H]1C[C@H](N)[C@H](O)[C@H](C)O1
cells in G0/G1 phase (MCF7; flow cytometry; 4.29 µM (IC50), 72 h): 25.3%

CC(=O)c1nn(-c2ccccc2Cl)/c(=N/N=C(\C)c2ccc(NC(=O)c3ccccc3)cc2)s1
cytotoxicity (MCF7; MTT; 0.625 µM): 93.4%

C=CC(=O)c1cccnc1Nc1cccc(C(F)(F)F)c1
TEAD reporter activity (MCF7; firefly luciferase reporter; 50 µM, 6 h; baseline: vehicle): 55.9 ± 2.2%

O=[N+]([O-])c1cc(I)c(O)c(C=NNc2ccccc2)c1
early apoptotic cells (MCF7; annexin V; IC50, 24 h): 41%

CC(=O)c1sc(=NN=C(C)c2c(O)c3ccccc3oc2=O)n(C)c1C
selectivity index (MCF7; cell growth, MTT; baseline: IC50 BJ-1 over MCF7): > 3.06

C=CC(=O)c1cccnc1Nc1cc(C(F)(F)F)ccc1OCc1ccccc1
TEAD reporter activity (MCF7; firefly luciferase reporter; 25 µM, 6 h; baseline: vehicle): 66.1 ± 6.4%

CC(C)(C)OC(=O)NCCOc1ccc(Cl)cc1C(=O)N[C@@H](Cc1ccccc1)C(=O)Nc1ccc([N+](=O)[O-])cc1Cl
antiproliferative activity (MCF7; up to 10 µM, 72 h): inactive

C[C@]12CC[C@@H]3c4ccc(O)cc4CC[C@H]3[C@@H]1CC[C@@H]2O
H3K4me2 and H3K4me3 levels (MCF7; histone methylation, ChIP, refers to: GREB1 ERE sites; concentration not given, 6 h): decreased

O=C(Nc1nnc2n3c(=S)[nH][nH]c3nc(-c3ccc(Cl)cc3)c1-2)c1ccccc1
cell growth (MCF7; SRB; 10 µM, NCI60 single-dose screen; baseline: untreated): 84.3%

C=CC(=O)c1cccnc1Nc1cc(C(F)(F)F)ccc1C
TEAD reporter activity (MCF7; firefly luciferase reporter; 25 µM, 6 h; baseline: vehicle): 91.8 ± 7.1%

CCOC(=O)c1nn(-c2cccc(Cl)c2)/c(=N/N=C(\C)c2ccc(NC(=O)c3ccc(Cl)cc3)cc2)s1
cytotoxicity (MCF7; MTT; 0.078 µM): 26.5%

Excerpt of the above:
COc1cccc2c1C(=O)c1c(O)c3c(c(O)c1C2=O)C[C@@](O)(C(=O)CO)C[C@@H]3O[C@H]1C[C@H](N)[C@H](O)[C@H](C)O1
cells in G0/G1 phase (MCF7; flow cytometry; 4.29 µM (IC50), 72 h): 25.3%

C=CC(=O)c1cccnc1Nc1cccc(C(F)(F)F)c1
TEAD reporter activity (MCF7; firefly luciferase reporter; 50 µM, 6 h; baseline: vehicle): 55.9 ± 2.2%

CC(=O)c1nn(-c2ccccc2Cl)/c(=N/N=C(\C)c2ccc(NC(=O)c3ccccc3)cc2)s1
cytotoxicity (MCF7; MTT; 0.625 µM): 93.4%

O=C(Nc1nnc2n3c(=S)[nH][nH]c3nc(-c3ccc(Cl)cc3)c1-2)c1ccccc1
cell growth (MCF7; SRB; 10 µM, NCI60 single-dose screen; baseline: untreated): 84.3%
